Assay results collected from several papers.
Numbered parts are unrelated; each lists some results of a single study. Substitutions count along the parent as printed.

Series 1
Target: CCNB2, cyclin fold, Cln2 fusion (human)
Technique: yeast growth competition, sequencing
Matrix: yeast
Notes: weak parent motif
Reference: not given
Direction: higher = stronger binding
Starting sequence: E2F1 docking peptide (human); PPVKRRLDLETDH; partner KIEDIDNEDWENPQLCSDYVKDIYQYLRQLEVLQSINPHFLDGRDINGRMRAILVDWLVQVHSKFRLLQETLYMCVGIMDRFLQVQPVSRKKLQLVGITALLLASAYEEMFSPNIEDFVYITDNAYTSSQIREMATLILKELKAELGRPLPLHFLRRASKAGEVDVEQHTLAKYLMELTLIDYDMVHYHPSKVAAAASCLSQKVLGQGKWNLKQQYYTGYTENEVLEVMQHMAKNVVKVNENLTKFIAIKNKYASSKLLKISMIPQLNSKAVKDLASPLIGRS
Variant | normalised enrichment score
PPVKRRLDLEQDH [T11Q] | 0.463
PPVKRRLDLETDE [H13E] | 0.421
PPVKRRLDLEGDH [T11G] | 0.159
PPVKRRLALETDH [D8A] | 0.163
PPVKRWLDLETDH [R6W] | 0.299
PPVKRRQDLETDH [L7Q] | 0.195
PPHKRRLDLETDH [V3H] | 0.272
PPVERRLDLETDH [K4E] | -0.0472

Series 2
Target: Probable WRKY transcription factor 50, DNA-binding domain (WRKY50, Arabidopsis thaliana, UniProt Q8VWQ5, residues 99-173)
Technique: DNA-protein interaction ELISA
Form: double-stranded DNA, one strand shown
Matrix: in vitro, bacterial lysate
Concentration: not given
Notes: whole dsDNA probe, crude lysate protein
Reference: highest signal in screen
Direction: higher = stronger binding
Construct (chain): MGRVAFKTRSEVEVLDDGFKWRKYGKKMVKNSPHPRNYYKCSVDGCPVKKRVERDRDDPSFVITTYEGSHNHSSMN
Oligonucleotide | relative absorbance
AAAAAATTCCTGTCCGCTCTCGCTCCAAAA | 58.7 % of maximum
AAAAAAACCCTGTGTCGGCCGATAAAAAA | 15.8 % of maximum
AAAAAAGCGCGAATTCTAGAACTATAAAAA | 18.2 % of maximum
AAAAAAGCTAGTGCTGCCACCAACGTAAAA | 11.9 % of maximum
AAAAAATGCCGAGACCCCATGCCGGCAAAA | 10.4 % of maximum
AAAAAATGTCCATCTTGCGTCTGTATAAAA | 42.3 % of maximum
AAAAAAAAATTTCGAGCCTCGGCGTAAAAA | 10.4 % of maximum
AAAAAAGTGCACGACCCATTTATATAAAAA | 38.8 % of maximum

Further values, each from its own experiment
P1: PafA, mature enzyme, eGFP fusion (Elizabethkingia meningoseptica, UniProt Q9KJX5); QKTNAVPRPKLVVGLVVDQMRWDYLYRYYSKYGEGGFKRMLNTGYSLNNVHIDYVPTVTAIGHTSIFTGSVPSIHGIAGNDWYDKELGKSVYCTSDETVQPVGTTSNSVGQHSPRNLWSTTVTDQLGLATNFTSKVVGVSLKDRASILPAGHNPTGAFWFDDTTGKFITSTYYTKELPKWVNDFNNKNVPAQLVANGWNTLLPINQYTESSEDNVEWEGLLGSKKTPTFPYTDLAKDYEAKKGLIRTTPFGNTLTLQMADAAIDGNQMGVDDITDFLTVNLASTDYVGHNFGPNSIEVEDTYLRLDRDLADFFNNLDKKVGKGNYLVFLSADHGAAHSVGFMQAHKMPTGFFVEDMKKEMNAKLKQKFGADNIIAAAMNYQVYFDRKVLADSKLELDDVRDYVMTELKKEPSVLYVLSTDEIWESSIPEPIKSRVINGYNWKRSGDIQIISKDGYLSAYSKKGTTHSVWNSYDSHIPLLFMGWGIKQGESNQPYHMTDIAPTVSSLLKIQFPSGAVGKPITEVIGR
Substance | target or system | test | test system | conditions | scale | endpoint | result
IDH3B (Homo sapiens, UniProt O43837) | IDH3A (Homo sapiens, UniProt P50213) | cross-linking MS | – | hits only | – | interaction screen | cross-linked
P1 D300G | inorganic phosphate, free oxyanion | microfluidic competitive inhibition | in vitro, cell-free expressed | not given, derived from inhibition constants, unchanged parent 615000 nM | lower = stronger binding | phosphate dissociation constant | 363 µM
CPSF2 (Homo sapiens, UniProt Q9P2I0) | CPSF3 (Homo sapiens, UniProt Q9UKF6) | cross-linking MS | cell fractions | together with: DMTMM | – | cross-linked residues | E627 to K487

For quick reference, copied from above (series 2):
Oligonucleotide | relative absorbance
AAAAAATGCCGAGACCCCATGCCGGCAAAA | 10.4 % of maximum
AAAAAATGTCCATCTTGCGTCTGTATAAAA | 42.3 % of maximum
